Published values collected from several papers.
Every numbered part comes from another study and shows a few of its results, in no order. Positions count from the first letter of the parent shown.

Block 1
Target: Interferon regulatory factor 7, full length, phosphomimetic (IRF7, Homo sapiens, UniProt Q92985, residues 1-503, S101K/S471D/S472D/S475D/S476D/S477D/S483D/S484D/S487D)
Method: protein-binding microarray
Form: double-stranded DNA, one strand shown
Sample: in vitro
Tested at: 250 nM
Setting: 60-bp whole probe
Together with: salmon DNA 0.4 mg/ml
Baseline: random background probes
Reading: higher = stronger binding
Measurement: log fluorescence
All sequences stand within: GCCTAGCAC … GTCTTGATTCGCTTGACGCTGCTG
Construct (chain): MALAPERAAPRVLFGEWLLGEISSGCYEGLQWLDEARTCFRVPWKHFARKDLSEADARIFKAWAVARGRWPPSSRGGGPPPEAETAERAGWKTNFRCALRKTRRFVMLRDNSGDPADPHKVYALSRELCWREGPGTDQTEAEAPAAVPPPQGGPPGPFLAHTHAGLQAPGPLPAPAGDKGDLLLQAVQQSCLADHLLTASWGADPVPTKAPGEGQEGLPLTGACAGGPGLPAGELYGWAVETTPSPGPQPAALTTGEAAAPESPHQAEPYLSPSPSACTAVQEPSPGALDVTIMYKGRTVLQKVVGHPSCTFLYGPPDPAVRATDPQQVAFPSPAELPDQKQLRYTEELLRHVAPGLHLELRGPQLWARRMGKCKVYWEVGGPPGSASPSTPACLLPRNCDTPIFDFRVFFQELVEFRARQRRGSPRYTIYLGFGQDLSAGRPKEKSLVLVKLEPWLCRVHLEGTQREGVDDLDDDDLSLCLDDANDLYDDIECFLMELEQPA
GACGGTTTCGACTATCGGGGCGTGCTA: 5.16 z-score
TTAAGACTGGGGTTTCGGTTAGTGCTA: 5.45 z-score
TTTAAAGAACCCACTATCTTGTGCTAG: 0.131 z-score
TTCGATTTCAGTTCCGATTAGTGCTAG: 1.75 z-score
GACGGACTTGGTTTCGGGACGTGCTAG: 3.75 z-score
TTAGGTTTCGTTCTCCTTTAGTGCTAG: 11.1 z-score
TCAATTGTCTCTGTCCCACTGTGCTAG: 0.839 z-score

Block 2
Target: RNA binding protein fox-1 homolog 2, RRM domain, GST-SBP tag (RBFOX2, Homo sapiens, UniProt O43251-10, residues 100-194)
Method: RNA Bind-n-Seq
Form: RNA
Sample: in vitro
Tested at: 365 nM
Setting: natural RNA segment, single round, ends assumed
Baseline: no-protein control
Reading: higher = stronger binding
Measurement: RBNS enrichment (R)
Construct (chain): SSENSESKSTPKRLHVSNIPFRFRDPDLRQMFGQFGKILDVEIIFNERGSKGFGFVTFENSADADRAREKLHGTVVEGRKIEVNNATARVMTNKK
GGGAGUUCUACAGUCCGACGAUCUAUAUAUUUUACCAAUUUAAUGUGAAUUUUAAAAAAUCCCUAUGCUAUUUAAAAGAAAGAAAAUGUAUUUUCCAUAGUAGUUUUGUGUAAAUCGUAUGAUUCACCUCAUCUGGAAUUCUCGGGUGCCAA: 0.479
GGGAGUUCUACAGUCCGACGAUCCUGGGGCCUGGCUGCAGAGACCUGCUCUUGAAUAGGGCUGCCUUUGGGAUCAGGGAGCCGAGCAUACUGGGCAAGGCUCAUCAUGUUCCUUUGUGGAAGUGGUUACUUGGUGGAAUUCUCGGGUGCCAA: 0.546
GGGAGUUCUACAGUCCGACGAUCCCACCCCUACCCAGCGAGAACAGUUUUUAAUGAAAACUGAGCUAGAUUGUCCAGUUCUGGUAAACAGUCUUCCAGUCAUCUCACAACCAUUAUUACAACCAUGUACAAAGUGGAAUUCUCGGGUGCCAA: 0.269
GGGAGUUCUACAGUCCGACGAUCAUGGAGGCUCAGGUCCAUCAGAAUCAGGGACUUGUGAUUUCAGUCACCUUGCUUCUGGGUUGUGUUUCUUCUCUUACUACCUCACUGCACCUGGACACUAGAGUGGAUGAUGGAAUUCUCGGGUGCCAA: 0.721
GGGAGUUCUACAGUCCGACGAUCGGUACAAAGAGGUCUGUCAUCUUCCCCCUGGGAUAUAAGAUGAUCUAGCUCCCGGUAGAGGAUCACCGGUGACAACUAUAGCAGUUGUAUUGUGUAACAAGUACUGCUCCUGGAAUUCUCGGGUGCCAA: 0.295
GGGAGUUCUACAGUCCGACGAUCUCCCCAGGACUCUCGUAGGAAAUAAAUAGCCCUUUCAAGAUUCCUCAGCUGCCUCACCCCCUGCACAUGUGCCUGGGGUGUGGCCUAGAAGGGAGUGAUGUUCUUACUCUUGGAAUUCUCGGGUGCCAA: 0.199
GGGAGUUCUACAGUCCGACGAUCUGGCAUAUGUUUAAGGUAACAAAAAGAUCAGGAGUUGCCUCUGGCCUCUAAAGUGCCAAGGGACCAAUCAUUGAUGUUCCAUGGAGCCAGUCAUGGAAAUCCCUGGAAGGUGGAAUUCUCGGGUGCCAA: 0.465
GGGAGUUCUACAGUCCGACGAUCGCUCUGCAAGUAGUUUAGUAGGAAUGAAGUGGAAGUCCAGGCUUGGAUUGCCUAACUACACUGCUAAAAAUAUUUGUAAUCCUUAAUAAUUAAACUUUGGAUUUGUUAAAUGGAAUUCUCGGGUGCCAA: 0.968

Block 3
Target: CCND3, cyclin fold, Cln2 fusion (human)
Method: yeast growth competition, sequencing
Sample: yeast
Setting: weak parent motif
Baseline: not given
Reading: higher = stronger binding
Measurement: normalised enrichment score
Parent: RB1 docking peptide (human); PKPLKKLRFDIEG
PKPWKKLRFDIEG [L4W]: 0.116
PKWLKKLRFDIEG [P3W]: 0.168
NKPLKKLRFDIEG [P1N]: 0.0633
PKPLKKLRFDIES [G13S]: 0.11
PKPLKKLRFDCEG [I11C]: 0.138
PKPLKFLRFDIEG [K6F]: 0.0642
PKPLKKLRFDTEG [I11T]: 0.0649
PYPLKKLRFDIEG [K2Y]: 0.12
PKPLKKLEFDIEG [R8E]: 0.0236
PKPLRKLRLDIEG [K5R F9L]: -0.23
PKPLKKLFFDIEG [R8F]: 0.0193
PKPLKKARFDIEG [L7A]: 0.188

Other studies, line by line
PhoQ, residues 284 288 289 292 302 303 SLANKL
fold induction (PhoP, residues 12 14 15 18 19 QWHVF (Escherichia coli, UniProt P23836); Sort-seq, refers to: YFP reporter; E. coli; PhoQ-PhoP variant library, together with: 10 µM Mg2+; baseline: high Mg2+ state, higher = stronger signaling): 8.13

For quick reference, copied from above (block 3):
PKPLKKLRFDTEG [I11T]: 0.0649
PYPLKKLRFDIEG [K2Y]: 0.12
PKPLKKLEFDIEG [R8E]: 0.0236
PKPLRKLRLDIEG [K5R F9L]: -0.23
